Measurements gathered from unrelated publications.
Lines come from different studies, so protocols differ. ± gives the spread as reported.

CN1CCN(C(=O)N(CCCCCCC(=O)NO)c2ccc(-c3ccc4cnn(C)c4c3)cc2)CC1 — phosphorylation (multiple myeloma cells; immunoblot, measured: mTOR and p70S6K; concentration not given): decreased
CC(=C(c1ccc(O)cc1)c1ccc(Cl)cc1)c1ccc(Cl)cc1 — GI50 (TK-10; cell growth or viability): 2.75 µM
O=Cc1c(O)ccc2ccccc12 — log2 fold change (HUVEC; RNA sequencing, measured: ANGPT2; 75 µM, 24 h; baseline: DMSO): -3.38
CCCC[n+]1cccc(C2NC(C(=O)OCC)C34c5c6c7c8c9c%10c(c%11c%12c3c3c5c5c%13c6c6c7c7c9c9c%14c%10c%10c%11c%11c%12c%12c3c3c5c5c%13c%13c6c6c7c9c7c9c%14c%10c%10c%11c%11c%12c3c3c5c5c%13c6c7c6c9c%10c%11c3c56)C824)c1 (stereo not shown) — CC50 (BCBL1; cell growth or viability; 24 h): 17.8 µM
COc1ccc([C@@H]2CC(=O)c3c(O)cc(O[C@@H]4O[C@H](CO[C@@H]5O[C@@H](C)[C@H](O)[C@@H](O)[C@H]5O)[C@@H](O)[C@H](O)[C@H]4O)cc3O2)cc1O — cell count (A549; trypan blue exclusion; 50 µg/mL, 72 h): 30400 ± 706
N=C(N/N=C/c1ccccn1)N/N=C/c1ccccn1 — selectivity ratio (PANC-1; crystal violet; 72 h; baseline: IC50 hTERT-HPNE over IC50 PANC-1): 41.4
CCC(C(=O)O)C1CCC(C)C(C(C)C(O)C(C)C(=O)C(CC)C2OC3(C=CC(NCc4cn(-c5ccc(C(C)=O)cc5)nn4)C4(CCC(C)(C5CCC(O)(CC)C(C)O5)O4)O3)C(C)CC2C)O1 (stereo not shown) — selectivity ratio (HMLER; cell proliferation; baseline: IC50 CD24high/CD44low over IC50 CD24low/CD44high): 18.5
COc1cc(CNC(=O)C[C@H](C)CCC=C(C)C)ccc1OCc1cn(-c2ccccc2F)nn1 — growth percent (SK-OV-3 ovarian cancer cells; SRB; 10 µM, 48 h): 43.6%
CC(=O)O[C@H]1C(=O)[C@]2(C)[C@@H](OC(=O)[C@H](N)CSC3CC(=O)N(CCC(=O)Nc4ccc(-c5ccc(/N=N/c6ccc7c(S(=O)(=O)O)cc(S(=O)(=O)O)c(N)c7c6O)c(C)c5)cc4C)C3=O)C[C@H]3OC[C@@]3(OC(C)=O)[C@H]2[C@H](OC(=O)c2ccccc2)[C@]2(O)C[C@H](OC(=O)[C@H](O)[C@@H](NC(=O)c3ccccc3)c3ccccc3)C(C)=C1C2(C)C (stereo partly shown) — early apoptotic cells (OVCAR-3; annexin V/PI flow cytometry; concentration not given, 24 h): 31.5%
COc1cc(CNC(=O)C[C@H](C)CCC=C(C)C)ccc1OCc1cn(-c2ccc([N+](=O)[O-])cc2)nn1 — growth percent (HOP-92; SRB; 10 µM, 48 h): 86.5%
CC(CCC(=O)NCc1ccc(C(=O)NO)cc1)C1CCC2C3C(O)CC4CC(O)CCC4(C)C3CCC12C (stereo not shown) — increase in primary cilium length (polycystic liver disease cholangiocytes (human); 2 µM): ~40%
CCC(=C(c1ccc(Cl)cc1)c1ccc(OCCCN(C)C)cc1)c1ccc(OC)cc1 — alkaline phosphatase activity (Ishikawa; 10 µM, 72 h, unit not given; baseline: DMSO): 0.04 ± 0.07
CC(=O)OC[C@H]1O[C@@H](Sc2sc(C(=O)c3ccc(Br)cc3)c(N)c2-c2nc3ccccc3s2)[C@H](OC(C)=O)[C@@H](OC(C)=O)[C@@H]1OC(C)=O — growth (KM12; SRB; 10 µM, 48 h; baseline: untreated): 63.1%
COc1cc(CN2CCN(c3cccc(Cl)c3)CC2)c2cc3[n+](cc2c1O)CCc1cc2c(cc1-3)OCO2 — therapeutic index (Ca-Ski and MDCK; SRB; 48 h; baseline: CC50 MDCK over IC50 Ca-Ski): 29.4
N=C(N/N=C/c1ccc(Cl)cc1)N/N=C/c1ccc(Cl)cc1 — selectivity ratio (PANC-1; crystal violet; 72 h; baseline: IC50 IMR-90 over IC50 PANC-1): 0.7
COc1ccc(C2=NN(C3=NC(=O)C(=Cc4ccc(O)cc4)S3)C(c3ccc(F)cc3)C2)cc1 (stereo not shown) — early apoptotic cells (T47D; annexin V-FITC/PI flow cytometry; concentration not given): 3.22%
COc1cc(CNC(=O)C[C@H](C)CCC=C(C)C)ccc1OCc1cn(-c2ccc(Cl)c(Cl)c2)nn1 — growth percent (NCI-H23; SRB; 10 µM, 48 h): 68.5%
CC[C@H](C)[C@H](NC(=O)[C@H](CCCNC(=N)N)NC(=O)[C@H](CCC(N)=O)NC(=O)[C@@H](NC(=O)[C@@H](NC(=O)[C@H](CCCNC(=N)N)NC(=O)[C@H](CCCCN)NC(=O)[C@@H](N)Cc1ccccc1)[C@@H](C)CC)C(C)C)C(=O)N[C@@H](CCCCN)C(=O)N[C@@H](CC(=O)O)C(=O)N[C@@H](Cc1ccccc1)C(=O)N[C@@H](CC(C)C)C(=O)N[C@@H](CCCNC(=N)N)C(=O)O — LPS effect on degranulation (LAD2; agonist; 3 µM, added: Pseudomonas aeruginosa LPS 10 µg/mL, 5 min preincubation): no effect
CCCCCCCCCCCCCCCC(=O)N[C@@H](CCCCN)C(=O)N[C@@H](CCCCN)C(=O)N[C@@H](CO)C(=O)N[C@@H](CCCNC(=N)N)C(=O)N[C@@H](C)C(=O)N[C@@H](CC(C)C)C(=O)N[C@@H](Cc1ccccc1)C(N)=O — inhibition (human gel-filtered platelets; platelet aggregation; concentration not given, added: ADP 20 µM): inactive
CC(Cc1ccc(Cl)cc1)=C(c1ccc(Cl)cc1)c1ccc(OCCN(C)C)cc1 — GI50 (SK-MEL-5; cell growth or viability, SRB): 4.4 µM
C(=C/c1ccccc1)/c1ccccc1 — lowest effective concentration (K562; cell proliferation, CellTiter-Glo; 24 h, lowest dose with significant inhibition; baseline: vehicle): 2 µM
C#CCOCCOCCOCCOCCn1cc(C(ONC(=O)/C=C/C(C)=C/C2(C)Oc3cc(N(C)C)ccc3C2=O)(c2ccc(C)cc2)c2ccc(C)cc2)nn1 (stereo not shown) — time to maximum BRET (MeT-5A; HDAC activity, inhibitor, BRET; IC50): 24 h
Cc1nnc(-c2ccc(CNC(=O)CCCCCOc3cccc4c3C(=O)N(C3CCC(=O)NC3=O)C4=O)cc2)nn1 (stereo not shown) — ERK1/2 protein level (A-375; degrader, immunoblot; concentration not given): no effect
COc1cc(CNC(=O)C[C@H](C)CCC=C(C)C)ccc1O — growth percent (HOP-92; SRB; 10 µM, 48 h): 83.5%
CC/C=C\C/C=C\C/C=C\C/C=C\C/C=C\C/C=C\CCC(=O)Nc1ccn(C2OC(CO)C(O)C2(F)F)c(=O)n1 (stereo not shown) — GI50 (TK-10; cell growth or viability, SRB): 11.5 µM
C=C(C)[C@@H]1CC[C@]2(C(=O)OCO/N=[N+](\[O-])N3CCCC3)CC[C@]3(C)[C@H](CC[C@@H]4[C@@]5(C)CC[C@H](OC(C)=O)C(C)(C)[C@@H]5CC[C@]43C)[C@@H]12 — Annexin V-positive cells (B16-F10; Annexin V/PI flow cytometry; 1 µM, 36 h): 22.1%
COc1cc(CNC(=O)C[C@H](C)CCC=C(C)C)ccc1OCc1cn(-c2ccccc2Cl)nn1 — growth percent (SK-MEL-5 melanoma cells; SRB; 10 µM, 48 h): 5.29%
O=C1OCC2=C1C(c1cccc(Br)c1)C1=C(N2)C(=O)c2ccccc2C1=O (stereo not shown) — cells in G0/G1 phase (SK-LU-1 cells; PI flow cytometry; 0.32 µM, 24 h): 0.03%
Cc1ccc(CN2C(=O)/C(=N\c3ccc(Cl)cc3Br)c3ccccc32)cc1 — apoptotic cells (A-375; 2.7 µM, 48 h): 45%
CC[C@H](C)C(=O)O[C@H]1C[C@H](O)C=C2C=C[C@H](C)[C@H](CC[C@@H](O)C[C@@H](O)CC(=O)O)[C@H]21 — minimum effective concentration (hiPSC cardiac tissues 3D; active force; 15 min per concentration, paced at 1 Hz serum-free): > 100 µM
COC(=O)CC[C@@H](NC(=O)[C@@H](Cc1ccc(OP(=O)(O)O)cc1)NC(=O)[C@@H](Cc1ccccc1)NC(=O)[C@@H](Cc1ccccc1)NC(=O)Cc1ccc2ccccc2c1)C(=O)OC — viability (SAOS-2; MTT; 10 µM, added: necrostatin-1 50 µM): 32%
COc1cc(CN2CCN(c3ccc([N+](=O)[O-])cc3)CC2)c2cc3[n+](cc2c1O)CCc1cc2c(cc1-3)OCO2 — therapeutic index (Ca-Ski and MDCK; SRB; 48 h; baseline: CC50 MDCK over IC50 Ca-Ski): 30.9
COc1cc(CNC(=O)C[C@H](C)CCC=C(C)C)ccc1OCc1cn(-c2ccccc2[N+](=O)[O-])nn1 — growth percent (SK-MEL-5 melanoma cells; SRB; 10 µM, 48 h): 16.3%
CO[C@H]1N(OC)c2ccccc2[C@@]12CN=C(Nc1cc(C(F)(F)F)cc(C(F)(F)F)c1)S2 (relative stereo) — early apoptotic cells (HCT-116; annexin V/PI flow cytometry; 40 µM, 72 h): 30.2 ± 11.1%
CCCC(CCC)C(=O)[O][Pt]([NH2])([NH2])([Cl])([Cl])[O]C(=O)C(Cl)Cl — depolarised mitochondria cells (PSN1; 1 µM, 24 h): 30 to 40%
O=C(/C=C/c1ccc(Cl)cc1Cl)NO — LysoTracker signal (SK-N-BE(2)-C; flow cytometry; 5.0 µM, unit not given; baseline: control): 1.5 ± 0.27
COc1cc(CNC(=O)C[C@H](C)CCC=C(C)C)ccc1OCc1cn(-c2cccc(Cl)c2)nn1 — growth percent (KM12; SRB; 10 µM, 48 h): 94.3%
CC(C)c1c(-c2cccc3[nH]ccc23)[nH]c(C(=O)O)c1-c1c(Cl)ccc2[nH]ccc12 — CD34-positive cells (TEX cells; concentration not given): 26%
COc1ccc(C2=Nn3c(NN=C4C(=O)N(Cc5ccccc5)c5ccc(Cl)cc54)nnc3SC2)cc1 — inhibition (UACC-257; cell growth or viability, SRB; 10 µM): 13%
CC(C)c1cccc(C(C)C)c1-n1ccn(-c2c(C(C)C)cccc2C(C)C)c1=[Se].[Cl][Au] — resistance factor (A2780 ADR; MTT; baseline: A2780 ADR over A2780): 0.5

Some of these lines once more:
O=C(/C=C/c1ccc(Cl)cc1Cl)NO — LysoTracker signal (SK-N-BE(2)-C; flow cytometry; 5.0 µM, unit not given; baseline: control): 1.5 ± 0.27
CC(=C(c1ccc(O)cc1)c1ccc(Cl)cc1)c1ccc(Cl)cc1 — GI50 (TK-10; cell growth or viability): 2.75 µM
